Experimental data of several laboratories.
Compare with care: the assays were run in different laboratories. “And” joins repeats or separate records; there may be more than shown. ± gives the spread as reported.

Cn1cc(-c2ccc(-c3cncc(Cl)c3N3CCC4(CCNC4=O)CC3)cc2)cn1  log2 fold change (COLO 205; gene expression, microarray, measured: EMID1 mRNA; concentration not given, 2 h; reference: untreated cells): 1.3
Cc1cc(N2CCN(c3ccc([N+](=O)[O-])c4cccnc34)CC2)c2ccccc2n1  efficacy (LDR; silenced CMV-GFP reporter derepression, qHTS): 169%
O=C(Nc1nnc2n3c(=S)[nH][nH]c3nc(-c3ccc(Cl)cc3)c1-2)c1ccccc1  cell growth (SR; SRB; 10 µM, NCI60 single-dose screen; reference: untreated): 75.2%
Br.CN(C)c1nc(=Nc2cccc(Cl)c2)ss1  efficacy (LDR; silenced CMV-GFP reporter derepression, qHTS): 118%
C=CC1=C(C)c2cc3[n-]c(cc4nc(cc5[n-]c(cc1n2)c(C)c5C=C)C(C)=C4CCC(=O)O)c(CCC(=O)O)c3C.[Zn+2]  fold change (SH-SY5Y; RNA-seq, measured: INSYN2B mRNA; 5 µM, 5 h; reference: untreated cells): 4.05
O=S(=O)(NCCNC/C=C/c1ccc(Br)cc1)c1cccc2cnccc12  CREB phosphorylation Ser133 (Neuro2a; inhibitor, western blot; concentration not given, with: BRP 100 µg/mL): inhibited
O=C(O)COCC(=O)O  IC50 (iPSC-derived hepatocytes B1; cell viability; 24 h, differentiation day 23): 11600 µM
CC(=O)Nc1cccc(-n2c(=O)n(C3CC3)c(=O)c3c(Nc4ccc(I)cc4F)n(C)c(=O)c(C)c32)c1  average fractional effect (MeWo (NF1); cell viability, resazurin; 1.56 nM, 72 h; reference: DMSO): 11%
Br.N=c1n(CC(=O)c2ccc([N+](=O)[O-])cc2)c2ccccc2n1Cc1ccccc1Cl  efficacy (LDR; silenced CMV-GFP reporter derepression, qHTS): 55%
Cn1cnc2c1c(=O)n(CC(=O)Nc1c(Cl)cccc1Cl)c(=O)n2C  cytotoxicity (Vero; MTT; 500 µg/mL): 74.7%
Cc1nn(CC(F)(F)F)cc1Nc1ncc(Br)c(NCc2ccc(S(N)(=O)=O)cc2)n1  phospho-TBK1/TBK1 ratio (RAW-ISG; TBK1 phosphorylation, western blot; 10 µM, with: poly(I:C); reference: DMSO): 0.409 and 0.274
CCn1cc(-c2cc(Cn3ccoc3=N)cc3c2CCN([C@@H](C)c2cc(OC)ccn2)C3=O)c(C(F)(F)F)n1  EC50 (DOHH-2; cell growth, inhibitor; 120 h): 1.43 µM
O=C(/C=C/C=C/C=C/C1CCCCC1)NC1=C[C@@](O)(/C=C/C=C/C=C/C(=O)NC2=C(O)CCC2=O)[C@@H]2O[C@@H]2C1=O  GI50 (rerflcai; cell growth, inhibitor, CellTiter-Glo luminescence; 78 h; reference: day 0 cell count): 23.3 µM
Clc1nc(NCc2ccco2)c2[nH]cnc2n1  ΔPSI (FD iPSC-derived cardiomyocytes; alternative splicing, RNA-seq, measured: GSN exon chr9(+):121300055-121300126; unit not given; reference: DMSO minus compound): -0.322
Cc1cc(NC(=O)C2CCCN(S(=O)(=O)c3cccc4nonc34)C2)ccc1Br (stereo not drawn)  efficacy (LDR; silenced CMV-GFP reporter derepression, qHTS): 63%
Cc1nc(N(Cc2ccccc2)c2ccc3c(c2)/C(=C/c2ccccc2)C(=O)N3Cc2ccccc2)c2ccccc2n1 (mixture of isomers)  reduction of wound healing rate (LLC; 0.5 µM, 24 h; reference: untreated): 8.73%
COc1cnc2cccc(N3CCc4c(cc(Cn5ccnc5C)cc4-c4cn(C)nc4C(F)(F)F)C3=O)c2c1  EC50 (KLM1; cell growth, inhibitor; 120 h): > 30 µM
CCCCCCCCCCCCCCC/C(NCc1ccccc1)=C1/C(=O)OC(CO)C1=O (stereo not drawn)  G2/M phase cells (G2-synchronized tsFT210 cells; flow cytometry; 5 µM, 4 h, 32 °C, release from G2 arrest): 24.4%
COc1cc2ncnc(Nc3ccc(Oc4ccccc4)cc3C)c2cc1OC.O=C(O)C(F)(F)F  average fractional effect (MeWo (NF1); cell viability, resazurin; 0.3 µM, 72 h, with: trametinib 0 nM): 1.76%
CCCCCCCCCCCCCCCC(NCc1ccccc1O)=C1C(=O)OC(CO)C1=O (stereo not drawn)  G2/M phase cells (G2-synchronized tsFT210 cells; flow cytometry; 50 µM, 4 h, 32 °C, release from G2 arrest): 60.7%
O=C1N=C(N2CCCCC2)S/C1=C\c1cccc(O)c1  EC50 (NG108-cl; clomeleon fluorescence, measured: intracellular chloride reduction; 5 h): inactive
CCCCN1CCN(c2ccc3[nH]c(-c4ccc5[nH]c(-c6cc(OC)c(OC)c(OC)c6)nc5c4)nc3c2)CC1  growth percent (TK-10; SRB; 10 µM, 48 h): 131%
Cc1cc(Nc2ncc(Cl)c(Nc3ccccc3S(=O)(=O)C(C)C)n2)c(OC(C)C)cc1C1CCNCC1  log2 fold change (CLB-GE; phosphoproteomics LC-MS/MS, measured: C10orf137 phosphorylation; 200 nM, 60 min; reference: untreated): -1.78
CCCCCCOC(=O)[C@]1(O)C[C@@H]2O[C@@]1(C)n1c3ccccc3c3c4c(c5c6ccccc6n2c5c31)C(=O)NC4  relative cell number (SK-OV-3; ATP; 3D spheroid culture; 10 µM, 4 days, with: GA-017 10 µM; reference: DMSO): 188%
O=c1cc(-c2ccc(O)c(O)c2)oc2cc(O)cc(O)c12  protein level (Caco-2; Western blot, measured: MRP2; concentration not given; reference: untreated): decreased
COC(=O)N[C@@H](C)CNc1nccc(-c2cn(C(C)C)nc2-c2cc(Cl)cc(NS(C)(=O)=O)c2F)n1  IC75 (SK-MEL-239 C4 (p61 BRAF V600E); ERK phosphorylation, Western blot; 1 h): 0.385 µM
CSc1cc(Oc2ccnc3[nH]c(=O)cnc23)ccc1NC(=O)Nc1cc(C(C)(C)C)nn1-c1ccccc1  phospho ratio (patient-derived cell line clone A; RPPA, measured: phosphorylated STAT5; human; 1 µM, 4 h; reference: DMSO): 0.64
COc1cc(/C=C/C(=O)N2CCC=CC2=O)cc(OC)c1OC  mRNA level (MDA-MB-468; quantitative RT-PCR, measured: GSR; 30 µM, 8 h; reference: untreated cells): 60.3 ± 10%
Nc1cccc2c1C(=O)N(C1CCC(=O)NC1=O)C2=O (stereo not drawn)  surface marker level (RPMI-8226; flow cytometry, measured: CD73; concentration not given; reference: comparator compound alone): 47.6%
O=C1c2ccncc2C(=O)c2c1[nH]c1ccccc21  minimum effective concentration (PAH hPASMC; mitochondrial fission, inhibitor): 0.1 µM
CN(C)c1ccc2nc3ccc(=[N+](C)C)cc-3sc2c1  mIPSC decay phase (mouse hippocampal CA1 pyramidal neurons; GABAergic miniature IPSCs, whole-cell patch clamp; brain slice; 10 µM): no effect
Cc1cnc2ccc3c(c2n1)N1CCC(O)N=C1N3C (stereo not drawn)  colony number (BALB/c 3T3; colony forming efficiency; 0.5 µM): 102 colonies per plate and 101 colonies per plate
CC(=O)N[C@@H](CS)C(=O)O  early apoptotic cells (HeLa; annexin V/PI flow cytometry; concentration not given, 48 h): 2.8 ± 0.25%
CC(=O)c1nn(-c2ccc(Cl)cc2)/c(=N/N=C(\C)c2ccc(NC(=O)c3ccc(C)cc3)cc2)s1  viability (HepG2; 0.625 µM): 21.6%
O=c1[nH]nc(OCCCc2ccc(Cl)cc2)c(NCc2cccnc2)c1Br  log2 fold change (HEK293T; RNA-seq, measured: SERPINH1 mRNA; 10 µM, 6 h; reference: vehicle): -0.167
CC/C(=N\NC(=O)NCc1cccc(O)c1)c1ccc(O)c(C)c1O  TAZ band intensity (SK-OV-3; Western blot; 10 µM, 3 h, 3D gellan gum culture, unit not given; reference: DMSO): 0.09 ± 0.04
COc1cc2nc(=S)n3[nH]c(CCn4nc(C)cc4C)nc3c2cc1OC  efficacy (LDR; silenced CMV-GFP reporter derepression, qHTS): 175%
Cc1nc(NC(=O)N2CCC[C@H]2C(N)=O)sc1-c1ccnc(C(C)(C)C(F)(F)F)c1  Hill coefficient GR curve (NCI-H1563; cell growth, CellTiter-Glo; 120 h): 0.481
CCN(CC)c1ccc2c(c1)oc(=O)c1c(Cl)cc(=O)oc12  efficacy (LDR; silenced CMV-GFP reporter derepression, qHTS): 82%
C=Cc1c2[n-]c(c1C)/C=c1\[n-]/c(c(C)c1C=C)=C\c1[n-]c(c(CCC(=O)O)c1C)/C=c1\[n-]c(c(C)c1CCC(=O)O)=C2.[Sn+4]  fold change (SH-SY5Y; RNA-seq, measured: INSYN2B mRNA; 5 µM, 5 h; reference: untreated cells): 4.57
C=CCn1c(=O)c2cnc(Nc3ccc(N4CCN(C)CC4)cc3)nc2n1-c1ccc2c(n1)[C@@](O)(CC)CC2  γH2AX-positive cells (Kuramochi; flow cytometry; concentration not given, EdU-negative S phase): 35%
O=P1(C2CCCCC2)CCCCC1  selectivity index (SW480; MTT; 72 h; reference: IC50 HaCaT over IC50 SW480): 19.6
CCn1cc(-c2cc(Cn3ccnc3)cc3c2CCN([C@H](c2cc(OC)ccn2)C2CC2)C3=O)c(C(F)(F)F)n1  EC50 (SW480; cell growth, inhibitor; 120 h): > 30 µM
CCNc1nc(Nc2ccc(F)c(Cl)c2)c2ccccc2n1  cytotoxicity (Vero; MTT; 500 µg/mL): 93.1%
CC(C)NCC(O)c1ccc(O)c(O)c1 (stereo not drawn)  sarcomere length (mouse ventricular cardiomyocytes; dose not given, 0.439 s): 1.68 µm
CC#CC(=O)N1CC[C@@H](n2cc(-c3ccc(Oc4c(F)cccc4F)cc3)c3c(N)n[nH]c(=O)c32)C1  GI50 (REC-BTK^KO-OE; cell growth; 72 h): 3.82 µM
C[C@H](NC(=O)C(=O)Nc1ccccc1C(C)(C)C)C(=O)N[C@@H](CC(=O)O)C(=O)COc1c(F)c(F)cc(F)c1F  PI-positive cells (mouse thymocytes; inhibitor, flow cytometry; 10 µM, with: FasL): 103% and 101%
CCCCS(=N)(=O)CCC(N)C(=O)O (stereo not drawn)  cellular GSH concentration (OVCAR-5; LC-ESI-MS/MS, measured: glutathione; 20 µM, 12 h): 58.8 ± 2.3 µM

Some of these lines once more:
CC/C(=N\NC(=O)NCc1cccc(O)c1)c1ccc(O)c(C)c1O  TAZ band intensity (SK-OV-3; Western blot; 10 µM, 3 h, 3D gellan gum culture, unit not given; reference: DMSO): 0.09 ± 0.04
CN(C)c1ccc2nc3ccc(=[N+](C)C)cc-3sc2c1  mIPSC decay phase (mouse hippocampal CA1 pyramidal neurons; GABAergic miniature IPSCs, whole-cell patch clamp; brain slice; 10 µM): no effect
CCN(CC)c1ccc2c(c1)oc(=O)c1c(Cl)cc(=O)oc12  efficacy (LDR; silenced CMV-GFP reporter derepression, qHTS): 82%
